Assay results gathered from unrelated publications.
Parts stem from different laboratories: compare values within a part only. Positions count from the first letter of the parent shown.

Block 1
Target: CCNA1, cyclin fold, Cln2 fusion (human)
Technique: yeast growth competition, sequencing
Sample: yeast
Setting: weak parent motif
Baseline: not given
Reading: higher = stronger binding
Quantity: normalised enrichment score
Starting sequence: ORC1 docking peptide (human); PRARKRLELGNLG
Variant = PRARKRLELGKLG [N11K]; result = 0.143
Variant = PHARKRLELGNLG [R2H]; result = 0.595
Variant = PRARKRLELGNFG [L12F]; result = 0.363
Variant = PRARKRLELGCLG [N11C]; result = 0.563
Variant = PRARKNLELGNLG [R6N]; result = 0.306
Variant = PRWRKRLELGNLG [A3W]; result = 0.387

Block 2
Target: Sal-like protein 4, full length isoform A (SALL4, Homo sapiens, UniProt Q9UJQ4, residues 1-1053)
Chain of UniProt Q9UJQ4 (whole entry, looked up): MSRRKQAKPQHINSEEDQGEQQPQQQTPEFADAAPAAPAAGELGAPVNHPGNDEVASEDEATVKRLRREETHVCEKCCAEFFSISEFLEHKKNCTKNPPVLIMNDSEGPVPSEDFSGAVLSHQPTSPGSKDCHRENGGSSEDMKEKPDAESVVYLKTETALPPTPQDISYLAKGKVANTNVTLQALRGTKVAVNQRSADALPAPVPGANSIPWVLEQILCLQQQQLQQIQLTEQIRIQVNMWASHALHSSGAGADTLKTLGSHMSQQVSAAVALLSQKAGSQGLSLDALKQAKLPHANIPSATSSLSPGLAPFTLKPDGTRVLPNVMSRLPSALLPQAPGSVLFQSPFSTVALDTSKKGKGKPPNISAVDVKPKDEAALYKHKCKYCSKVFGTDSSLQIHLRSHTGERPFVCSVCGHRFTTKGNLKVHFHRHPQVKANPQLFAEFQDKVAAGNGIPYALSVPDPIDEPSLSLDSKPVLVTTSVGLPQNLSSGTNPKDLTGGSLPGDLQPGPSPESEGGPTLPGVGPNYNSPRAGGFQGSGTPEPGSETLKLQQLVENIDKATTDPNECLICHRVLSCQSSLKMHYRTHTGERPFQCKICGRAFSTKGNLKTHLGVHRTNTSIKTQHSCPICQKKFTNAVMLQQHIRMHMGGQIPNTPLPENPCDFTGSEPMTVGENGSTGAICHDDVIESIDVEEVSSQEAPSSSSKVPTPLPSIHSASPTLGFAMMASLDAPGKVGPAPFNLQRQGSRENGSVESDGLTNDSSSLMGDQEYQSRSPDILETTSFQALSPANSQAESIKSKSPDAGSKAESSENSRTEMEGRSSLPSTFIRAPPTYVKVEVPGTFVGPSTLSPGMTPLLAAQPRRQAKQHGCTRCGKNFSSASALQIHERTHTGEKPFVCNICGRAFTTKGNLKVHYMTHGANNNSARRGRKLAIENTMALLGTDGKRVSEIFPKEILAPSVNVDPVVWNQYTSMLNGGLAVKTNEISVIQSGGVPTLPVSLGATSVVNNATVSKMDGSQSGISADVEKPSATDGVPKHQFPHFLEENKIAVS
Technique: universal PBM
Form: double-stranded DNA, one strand shown
Sample: in vitro
Tested at: 600 nM
Setting: 8-mer, flanks averaged, mean of replicates
Reading: higher = stronger binding
Quantity: E-score
Oligonucleotide = CTTGCTGA; result = -0.129
Oligonucleotide = CTAGGAGC; result = -0.166
Oligonucleotide = AGGATATG; result = 0.159
Oligonucleotide = AACTACAT; result = 0.192
Oligonucleotide = CACGCTAC; result = -0.0832
Oligonucleotide = CTAGAGGC; result = -0.145
Oligonucleotide = ATACAGAA; result = 0.176
Oligonucleotide = ACGAGAAT; result = 0.151

Block 3
Target: Prothrombin, mature alpha-thrombin (F2, Homo sapiens, UniProt P00734)
Technique: aptamer microarray, sandwich
Form: DNA with 2'F-ANA
Sample: in vitro
Tested at: 200 nM
Setting: whole 15-mer aptamer, many near background
Together with: Cy3 exosite-II aptamer, 400 nM
Reading: higher = stronger binding
Quantity: mean fluorescence intensity
Oligonucleotide: GGTTGGTGTGGTTGG
Modification = 2'F-ANA at 1 3 4 5 7 9 10 11 13 14 15; result = 83.7 a.u.
Modification = 2'F-ANA at 1 2 3 4 6 12 13; result = 233 a.u.
Modification = 2'F-ANA at 2 3 7 8 10 11; result = 378 a.u.
Modification = 2'F-ANA at 1 8 9 11 13; result = 163 a.u.
Modification = 2'F-ANA at 3 4 5 6 7 9 10 11 12 13 15; result = 56.3 a.u.
Modification = 2'F-ANA at 2 3 4 6 7 8 14 15; result = 452 a.u.
Modification = 2'F-ANA at 1 3 4 7 9 12 15; result = 433 a.u.
Modification = 2'F-ANA at 1 6 8 9 10 12 14 15; result = 54.7 a.u.
Modification = 2'F-ANA at 1 3 5 7 8 15; result = 75.5 a.u.

Mixed results
Substance = PhoQ, residues 284 288 289 292 302 303 AANNSF; target = PhoP, residues 12 14 15 18 19 AGCRL (Escherichia coli, UniProt P23836); assay = Sort-seq, refers to: YFP reporter; system = E. coli; setting = PhoQ-PhoP variant library, together with: 10 µM Mg2+; scale = baseline: high Mg2+ state, higher = stronger signaling; quantity = fold induction; result = 2.71

Excerpt of the above (block 2):
Oligonucleotide = ATACAGAA; result = 0.176
Oligonucleotide = ACGAGAAT; result = 0.151
